Assay results of several laboratories.
Parts stem from different laboratories: compare values within a part only. Substitutions count along the parent as printed.

Sample 1 — target: CCND3, cyclin fold, Cln2 fusion (human); method: yeast growth competition, sequencing; matrix: yeast; notes: weak parent motif; baseline: not given; reading: higher = stronger binding
Starting sequence: SLBP docking peptide (human); ARYKRKLLINDFG
Variant	normalised enrichment score
ARYKRKLLFNDFG [I9F]	0.0674
ARYKIKLLINDFG [R5I]	0.102
IRYKRKLLINDFG [A1I]	0.0996
ARYKRKLLINAFG [D11A]	0.145
ARYKRKLLINDAG [F12A]	0.0953
AMYKRKLLINDFG [R2M]	0.119
VRYKRKLLINDFG [A1V]	0.2
ARQKRKLLINDFG [Y3Q]	0.112
ARYKRKGLINDFG [L7G]	0.1
ARYKRKLLIEDFG [N10E]	0.232

Sample 2 — method: universal PBM; form: double-stranded DNA, one strand shown; matrix: in vitro; concentration: 600 nM; reading: higher = stronger binding
Target: Sal-like protein 4, full length isoform A (SALL4, Homo sapiens, UniProt Q9UJQ4, residues 1-1053)
Chain of UniProt Q9UJQ4 (whole entry, looked up): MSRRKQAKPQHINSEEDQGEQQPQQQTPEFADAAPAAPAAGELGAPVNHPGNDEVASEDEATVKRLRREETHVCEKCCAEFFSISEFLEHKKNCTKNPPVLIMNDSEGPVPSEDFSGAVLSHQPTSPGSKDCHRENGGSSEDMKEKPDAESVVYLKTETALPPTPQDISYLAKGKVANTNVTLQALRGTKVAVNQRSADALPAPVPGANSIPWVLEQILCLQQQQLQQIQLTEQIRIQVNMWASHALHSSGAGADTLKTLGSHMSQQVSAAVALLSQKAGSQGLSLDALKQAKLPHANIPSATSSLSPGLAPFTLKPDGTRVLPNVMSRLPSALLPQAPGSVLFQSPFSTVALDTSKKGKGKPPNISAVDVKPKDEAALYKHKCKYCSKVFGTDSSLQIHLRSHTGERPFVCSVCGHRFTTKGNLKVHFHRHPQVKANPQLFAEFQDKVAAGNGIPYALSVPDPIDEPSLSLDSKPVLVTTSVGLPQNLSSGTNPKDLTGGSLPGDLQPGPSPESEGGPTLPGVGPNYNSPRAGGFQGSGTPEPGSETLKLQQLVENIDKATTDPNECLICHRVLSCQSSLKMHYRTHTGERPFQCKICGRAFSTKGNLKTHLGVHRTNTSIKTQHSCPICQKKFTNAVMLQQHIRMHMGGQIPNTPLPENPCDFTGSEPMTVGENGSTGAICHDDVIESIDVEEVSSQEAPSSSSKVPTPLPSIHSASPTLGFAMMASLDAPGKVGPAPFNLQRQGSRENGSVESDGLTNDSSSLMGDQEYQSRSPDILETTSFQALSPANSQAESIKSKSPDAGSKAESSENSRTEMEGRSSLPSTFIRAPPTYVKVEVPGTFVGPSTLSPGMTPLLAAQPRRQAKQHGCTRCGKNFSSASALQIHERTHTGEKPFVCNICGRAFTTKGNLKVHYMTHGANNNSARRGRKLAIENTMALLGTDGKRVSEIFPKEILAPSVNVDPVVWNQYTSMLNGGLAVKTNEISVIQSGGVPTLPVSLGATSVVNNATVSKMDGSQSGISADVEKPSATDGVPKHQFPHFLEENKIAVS
Notes: 8-mer, flanks averaged, mean of replicates
Oligonucleotide	E-score
ACCAAATA	0.278
CTTGGGGC	-0.247
TCTTGGCA	0.0344
CGCGCTTA	-0.162
AGCCTCCG	-0.409
GATTTCCC	-0.115
GGAGGCCC	-0.414
GAGTTACC	-0.227
AGAAGCAA	0.108
CTAGTACA	0.12
AAGCGGGC	-0.349
ATTCTGTA	0.257
ACCAAAAC	0.163
AGATAACA	0.238
GCACATCC	0.00275
CATCCTGG	-0.137
ACTTCATA	0.326

Sample 3 — method: RNA Bind-n-Seq; form: RNA; matrix: in vitro; concentration: 365 nM; baseline: no-protein control; reading: higher = stronger binding
Target: RNA binding protein fox-1 homolog 2, RRM domain, GST-SBP tag (RBFOX2, Homo sapiens, UniProt O43251-10, residues 100-194)
Notes: natural RNA segment, single round, ends assumed
All sequences stand within: GGGAGUUCUACAGUCCGACGAUC … UGGAAUUCUCGGGUGCCAA
Target sequence (chain): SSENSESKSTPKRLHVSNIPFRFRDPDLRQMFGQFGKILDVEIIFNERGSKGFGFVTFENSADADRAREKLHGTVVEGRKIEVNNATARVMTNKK
Oligonucleotide	RBNS enrichment (R)
UUAUUUGUUCACAAAUUCAAGAAGCUUAAAGGUCGUAAAUAUCAGUAUCUCAUAAGGUAAACCAAUAGCUGAUUAUGUGGAGCCAAGUUACUUCUUUUCUUUUUGCAUUA	0.898
GCGUUCAUUACUCAGCAGUGUAUAAAGCUAACCUUGAUAAUUUUACCUUUUGUUAAUUAUCUAAAUGGGAAAUGCCAUUAGCUAAACCCCACACACAGCACAGAGAGCAG	0.38
GGCCUCCUUCCUCUGCUGGUAUACUCAUGGACUCAUUCACUGCCAAGAUGACCAAAUACUCUACCACACUAACCAAGGAGCCCUCCCUAGCCCUGCAGUUCCCACCUUUG	0.348
GGUAGGUUGUCAGCAUGCUUGGCAUUCUUCUGUUUUCCUUACCGUUUUACAGACUAUGAAGCUGAGGGGGGAUGGUAGGCACAGAUGUGUGGCAACCCUGCUCUGUGCUC	2.69
CUACCAGACAGCGAAGCACCCUUGCUUCCCAUGCAAUGUCACGGUUUCCUAUACUAUACAUAUAUAUGUGUUCUGGUCGGCAAAGCCUGCCGACCAGAGGAAGUCUCUCU	0.194
ACAUCUUAAAAUCACUUAUAUACAAUCAUUAAAAGAGUGGUAAUUUUAUAAAUGCUUAUUUAUGUUAUAAAAUGGAGAUCAGAAAAAAAUUCUUUUUGCACUUUGGCCUA	0.534
UUCCUUUCCUCGUGGCAGAGGCCUGCAUGUGGGUGCCAGAGGCCAGCUCUCCCCCUCCAUCUUGGGGGGGCGGAGCAGUUGGGCCCAAGCUGCCCGGGAGGGUGGGUGCA	12.9
GAGGCUUGACCCCGGGCACCAUGGGCCACUCCAGGAUGGGACACGGCCCCUCUUUCUUGGGGACCCAGUAUGUCCUCUCCUCUAGACCCAGACAUACAGUUAUAACCGUC	0.311

Sample 4 — method: protein-binding microarray; form: double-stranded DNA, one strand shown; matrix: in vitro; concentration: 2200 nM top; notes: 60-bp whole probe; added: salmon DNA 0.4 mg/ml; baseline: random background probes; reading: higher = stronger binding; all sequences stand within: GCCTAGCAC … GTCTTGATTCGCTTGACGCTGCTG
Target: Interferon regulatory factor 7, full length, phosphomimetic (IRF7, Homo sapiens, UniProt Q92985, residues 1-503, S471D/S472D/S475D/S476D/S477D/S483D/S484D/S487D)
Chain of UniProt Q92985 (whole entry, unmodified, looked up): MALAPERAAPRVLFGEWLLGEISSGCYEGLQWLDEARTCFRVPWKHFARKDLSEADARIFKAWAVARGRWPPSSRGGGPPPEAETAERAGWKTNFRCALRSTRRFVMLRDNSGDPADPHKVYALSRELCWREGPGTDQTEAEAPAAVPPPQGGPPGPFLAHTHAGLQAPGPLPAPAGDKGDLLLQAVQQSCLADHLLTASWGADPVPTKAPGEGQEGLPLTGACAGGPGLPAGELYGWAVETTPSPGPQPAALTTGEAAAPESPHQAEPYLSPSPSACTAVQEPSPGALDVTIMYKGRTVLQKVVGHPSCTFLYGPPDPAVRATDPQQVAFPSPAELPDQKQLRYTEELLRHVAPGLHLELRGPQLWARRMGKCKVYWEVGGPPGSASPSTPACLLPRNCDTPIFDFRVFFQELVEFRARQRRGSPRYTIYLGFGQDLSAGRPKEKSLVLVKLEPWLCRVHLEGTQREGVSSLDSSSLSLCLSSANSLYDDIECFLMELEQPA
Oligonucleotide	fitted relative affinity
GTCCCCTGTCGGGAGGTCAGGTGCTAG	-0.158 z-score
GATGGTATCGGACTGGGGACGTGCTAG	-0.169 z-score
TCAAGTCCCTATCTCCTACTGTGCTAG	1.48 z-score
TTAGGTCTCCTTATTCTTTAGTGCTAG	0.867 z-score
GACGGTATCGACATTCGGGACGTGCTA	0.484 z-score
GACAGTATCGGGACTGGGGACGTGCTA	-0.27 z-score
GGGCCAGCAGCCAGGTGGAGGTGCTAG	-1.78 z-score
GTCGGTATCGACACTGGGGACGTGCTA	0.0401 z-score
GTCGGTATCCTTATCCTGACGTGCTAG	1.62 z-score
GACGGACGGGACTTTCGGGACGTGCTA	2.06 z-score
TTAGCTATCAGTTTCGATTAGTGCTAG	5.62 z-score
GACGATTTCAGTCTCGAGATGTGCTAG	0.957 z-score
TTAGGGATCCTACTGCTTTAGTGCTAG	0.019 z-score

Repeated from above (sample 2):
Oligonucleotide	E-score
ACCAAATA	0.278
ACTTCATA	0.326
ACCAAAAC	0.163
AGCCTCCG	-0.409
